Assay results from different studies.
Protocols differ between the studies behind these lines.
FGFR3: Fibroblast growth factor receptor 3 (FGFR3, Homo sapiens, UniProt P22607)
FGFR3 G697C: Fibroblast growth factor receptor 3 (FGFR3, Homo sapiens, UniProt P22607, G697C)

The remaining binding of `CN1CCN(Cc2ccc(NC(=O)c3cccc(C#Cc4cnc(N)c5ncccc45)c3)cc2C(F)(F)F)CC1` is reported as 18% (FGFR3; cell-free assay, competition with immobilised ligand; 50 nM).
`Cc1ccc(-c2c(/C=C(\C#N)C(=O)NC(C)C)n(CCCO)c3ncnc(N)c23)cc1` gave a remaining binding of 100% (FGFR3 G697C; cell-free assay, competition with immobilised ligand; 1 µM).
`COc1c(Cl)cccc1Nc1c(-c2ccncc2C#C[C@@]2(C)CCCN2C(=O)/C=C/CN(C)C)[nH]c2c1C(=O)NCC2` gave a remaining binding of 100% (FGFR3; cell-free assay, competition with immobilised ligand; 3 µM).
The remaining binding of `C=CC(=O)N1CCCC(n2c(=O)c3ncccc3n(Cc3ccc(Oc4ccccc4)cc3)c2=O)C1` (stereo not drawn) is reported as 85% (FGFR3 G697C; cell-free assay, competition with immobilised ligand; 1 µM).
For `Cc1cnc2nc1Nc1cccc(c1)COC/C=C/COCc1cc(ccc1OCCN1CCOCC1)N2`, the remaining binding was 87% (FGFR3; binding; 0.1 µM).
`Nc1ncc2c(n1)-c1c([nH]c3ccc(C4=CCOCC4)cc13)CCC2` gave a remaining binding of 100% (FGFR3 G697C; binding, competition with immobilised ligand; 1 µM).
With `COc1ccc(NC(=O)Nc2ccc3c(c2)C(=O)N(C(C)CO)CC(C)C(CN(C)Cc2ccc4c(c2)OCO4)O3)cc1` (stereo not drawn) the remaining binding was 56% (FGFR3; binding, competition with immobilised ligand; 10 µM).
`C=CC(=O)N1CCc2ccc(-n3c(=O)ccc4cnc5ccc(-c6cnn(C)c6)cc5c43)cc21` has a remaining binding of 95% (FGFR3; KINOMEscan; 1 µM; relative to: DMSO control).
`CC(C)=CC1OC(C)(C)C2C=C3C(=O)C(Cl)=CC(O)C3C3C(O)C4OC4C(=O)C132` (stereo not drawn) has a remaining binding of 87% (FGFR3 G697C; cell-free assay, competition with immobilised ligand; 10 µM).
The remaining binding of `CNC1C[S+]2CC[S+]3CC[S+](C1)[Ru-4]321([N]=C=S)[n]2c3ccc(OC)cc3c3c4c(c5cc(F)c[n+]1c5c32)C(=O)NC4=O` (stereo not drawn) is reported as 92% (FGFR3; KinomeScan; 0.1 µM; relative to: untreated).
For `CNC(=O)C1CCN(c2cc(C)c(F)cc2NC(=O)c2ccc(-c3cc(O)ccc3C)c(C)c2)CC1`, the remaining binding was 100% (FGFR3; binding, competition with immobilised ligand; 1 µM).
`CCN1CCN(Cc2ccc(C(=O)Nc3ccc(C)c(NCc4cnc5[nH]ccc5c4OC)c3)cc2C(F)(F)F)CC1` has a remaining binding of 42% (FGFR3 G697C; binding, competition with immobilised ligand; 1 µM).
